Measurements gathered from unrelated publications.
A part holds a random share of what one study measured. Positions count from the first letter of the parent shown.

Block 1 — target: CCND1, cyclin fold, Cln2 fusion (human); method: yeast growth competition, sequencing; medium: yeast; notes: weak parent motif; baseline: not given; direction: higher = stronger binding
Starting sequence: TICRR docking peptide (human); TKVRRNLFNQELL
Under “normalised enrichment score”, `TKVRRNLANQELL [F8A]` is recorded as -0.258.
For `TAVRRNLFNQELL [K2A]`, “normalised enrichment score” read 1.27.
`AKVRRNLFNQELL [T1A]`: “normalised enrichment score” 0.337.
`TKVRRNLFNQELA [L13A]` — result for “normalised enrichment score”: 0.441.
Under “normalised enrichment score”, `TKVRKNLLNQELL [R5K F8L]` is recorded as 0.285.
`TKVRRNAFNQELL [L7A]` — result for “normalised enrichment score”: -0.0913.
For `TKVRRNLLNQELL [F8L]`, “normalised enrichment score” read 0.522.
For `TKVRANAFNQELL [R5A L7A]`, “normalised enrichment score” read 0.11.
`TKARRNLFNQELL [V3A]` — result for “normalised enrichment score”: -0.668.
`TKVRRNLFNQALL [E11A]` — result for “normalised enrichment score”: 0.712.

Block 2 — method: RNA Bind-n-Seq; molecule type: RNA; medium: in vitro; tested at: 200 nM; notes: whole 134-nt RNA, ends assumed; with: 150 mM KCl; baseline: input library; direction: higher = stronger binding
Target: Ras GTPase-activating protein-binding protein 1, full length (G3BP1, Homo sapiens, UniProt Q13283)
UniProt Q13283, sequence (whole entry, looked up): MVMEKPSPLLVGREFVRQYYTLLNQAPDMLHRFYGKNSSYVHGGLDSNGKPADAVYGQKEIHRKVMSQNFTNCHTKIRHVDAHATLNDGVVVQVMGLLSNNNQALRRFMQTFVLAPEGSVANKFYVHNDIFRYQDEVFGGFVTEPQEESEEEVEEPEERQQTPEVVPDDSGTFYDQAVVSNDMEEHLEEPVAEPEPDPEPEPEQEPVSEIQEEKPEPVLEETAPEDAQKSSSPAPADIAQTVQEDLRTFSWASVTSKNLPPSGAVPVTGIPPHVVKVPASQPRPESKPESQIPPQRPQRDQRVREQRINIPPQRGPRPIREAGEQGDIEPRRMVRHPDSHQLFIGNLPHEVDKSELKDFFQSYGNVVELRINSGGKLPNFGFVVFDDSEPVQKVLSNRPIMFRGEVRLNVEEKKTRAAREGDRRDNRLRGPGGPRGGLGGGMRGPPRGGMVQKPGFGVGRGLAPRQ
`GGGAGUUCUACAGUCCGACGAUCCACAGACAACACGCACCCACACAGACACAGAGGGAAGGGGUUGGGAUGGGAACAGGGUGCACAGCAGGGCGGGGUAGGACCCCAGCCCCUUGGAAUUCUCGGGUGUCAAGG` gave a log2 enrichment of 1.91.
`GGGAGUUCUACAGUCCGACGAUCUUUCUAGGGAAGGUGCUUCUGGAAAAGUUGCUGAGGUCUUGUCCUAAGGUGAAUUCAGUAUAUGUUUUGGUGAGGCAGAAAGCUGGACAGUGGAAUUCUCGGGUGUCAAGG` gave a log2 enrichment of -1.77.
For `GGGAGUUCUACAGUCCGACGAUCCACAGACAACACGCACCCACACAGACACAGAGGGAAGGGGUUGGGAUGGGGACAGGGUGCACAGCAGGGCGGGGUAGGACCCCAGCUCCUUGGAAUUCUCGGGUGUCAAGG`, the log2 enrichment was 1.92.
`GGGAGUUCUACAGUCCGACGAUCUUCUUGCCAGAGACGAAGAAGCGCAAGAAACGCAAGUCAGAGGAUGGCACGCCAGCGGAGGAUGGCACACCUGCAGCCACCGGCGGGAGCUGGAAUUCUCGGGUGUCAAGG` gave a log2 enrichment of -1.18.
For `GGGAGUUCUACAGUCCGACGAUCCAAGUCCUGUGCUACACAUCGUAUGUACCGAAUCGGGAAAAAGGGAAAGGGUGGGAAAGUAUUAUGUUACGCCGUUCGGAUCUGCACUUCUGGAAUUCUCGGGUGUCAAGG`, the log2 enrichment was 0.77.
The log2 enrichment of `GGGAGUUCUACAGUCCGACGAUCGCAGGAAGUAAACACAAAUGGAAAUGCUUCGGAUAGUGGCAGGGGUGGGGGUUGCUAAGGAAAGGGUGGGAUGGGAGUGGGUAAAGAGUUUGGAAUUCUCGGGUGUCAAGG` is reported as 1.4.
`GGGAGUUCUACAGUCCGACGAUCCAAGUCCUGUGCUACACAUCGUAUGUACCGAAUCGGGAGGGUUUGGGUUUUUGGGAAAGUAUUAUGUUACGCCGUUCGGAUCUGCACUUCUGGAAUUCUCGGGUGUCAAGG` has a log2 enrichment of 0.349.
`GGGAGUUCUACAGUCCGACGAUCCAAGUCCUGUGCUACACAUCGUAUGUACCGAAUCGGGGAAGGGGAAGGGGAAGGGAAAGUAUUAUGUUACGCCGUUCGGAUCUGCACUUCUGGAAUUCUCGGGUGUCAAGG` gave a log2 enrichment of 0.994.
`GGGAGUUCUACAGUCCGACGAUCUAACUUUAGAGGAGGAUCUGAUGGAUAUGGCAGUUGACGUGGAUUUGGGGAUGGCUAUAAUGGGUAUGGAGGAGGACCUGGAGGUGGCAAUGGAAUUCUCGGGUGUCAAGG` gave a log2 enrichment of 0.259.
The log2 enrichment of `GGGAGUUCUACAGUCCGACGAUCCCUGUGCUACACAUCGUAUGUACCGAAUCGGGUUUUUUUGGGUUUUUGGGAAAAAAAGGGAAAGUAUUAUGUUACGCCGUUCGGAUCUGCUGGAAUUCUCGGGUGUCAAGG` is reported as -1.02.

Block 3 — method: RNA Bind-n-Seq; molecule type: RNA; medium: in vitro; tested at: 365 nM; baseline: no-protein control; direction: higher = stronger binding
Target: RNA binding protein fox-1 homolog 2, RRM domain, GST-SBP tag (RBFOX2, Homo sapiens, UniProt O43251-10, residues 100-194)
Notes: natural RNA segment, single round, ends assumed
Target sequence (chain): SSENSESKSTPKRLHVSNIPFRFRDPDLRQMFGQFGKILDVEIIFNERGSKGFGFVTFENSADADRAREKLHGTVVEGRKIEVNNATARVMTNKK
`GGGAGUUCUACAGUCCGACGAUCAGCGCGCGGCUCUACACGCUUGGGUAGCGGGAUAAGUCACUGUUUUCUUUAUUUCUUUAAAAAAAAAAAAGUUCUGUUGCAAACGACUGCUGUUGGAUUCUGAGGGUGGGUGGAAUUCUCGGGUGCCAA`: “RBNS enrichment (R)” 0.987.
Under “RBNS enrichment (R)”, `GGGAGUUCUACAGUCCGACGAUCCUCAGAAAUAAAUCACAGAUGCAUAUAGACACACAUACAUAAUGGUACUCCCAAACUGACAAUUUUACCUAUUCUGAAAAAGACAUAAAACAGAAUUUGGUAGCACUUACUGGAAUUCUCGGGUGCCAA` is recorded as 1.02.
`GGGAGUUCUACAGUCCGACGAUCCAGUUGAGAAACACUAAGGUUAUGGUGAAUAAAACCAUAGGGAGCUUCUUCCCCCCAACCCCUGGCUAUUUUAUAUUAAUGGGGAGAGGGGAUUUUUAAAUGUCAUAAAUUGGAAUUCUCGGGUGCCAA` — result for “RBNS enrichment (R)”: 0.371.
`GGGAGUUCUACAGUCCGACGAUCCAGCGUGUCCCCAGACGCAGACCUCAAGGGCCUUCUCCAGCGGCUGGAGACAGCCUGAAAAGCAAAGGCCUCAUCUCCAUGGCACAGGGGAGAAGCGCAUCUACCGGGUGUGGAAUUCUCGGGUGCCAA` — result for “RBNS enrichment (R)”: 0.183.
For `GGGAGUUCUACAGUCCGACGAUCUUAACAUAUAAUGUCAAAAUUUUCUAUUCUGGUGCCAAUAUAGAUGAAUUAAUUACGUUCCUGAUAGAUCACAGUCAAUCUUCUGAAGAUGAGUUAAAAAUGCCUUGUCUUGGAAUUCUCGGGUGCCAA`, “RBNS enrichment (R)” read 0.492.
Under “RBNS enrichment (R)”, `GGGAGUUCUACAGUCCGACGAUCGUCUCCAGAUCUGAUGACCUCUCACAGUGCUCAUGAGCCUUUUGCCCACCACGGACUGCUCAGCCUGCUUCUCUCCCGGAACUUAAGGUCCAGCCAGACUUCAGGAUCUGUGGAAUUCUCGGGUGCCAA` is recorded as 0.427.
For `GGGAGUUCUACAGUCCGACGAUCCUGCACCAGGCUGCUGCUUUGUUGUCUGUCUGCUGCCCGUCCCUCCCUGCAGGCCGCAUCAUGGUGGUGUCUAUUGCCGGGGUGGCCACAGGCUGGAUCCGAGUGUCCCCUGGAAUUCUCGGGUGCCAA`, “RBNS enrichment (R)” read 0.21.
Under “RBNS enrichment (R)”, `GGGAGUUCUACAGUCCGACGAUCCCUCAGGUAACUGUAAAUACCGACGUGGUAAACUUGCUUGAGUACUGUGUGUCUCCCUCAUGGAGUGCGAGGAUUUGAGCAUUUUCUGCUUCUUUAUGCUUUUUCAUUUAUGGAAUUCUCGGGUGCCAA` is recorded as 0.417.
For `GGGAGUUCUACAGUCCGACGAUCAUGAUUUUGCUCCUAGUUUUGAUUUCUGCCAGGAUUGAAUUAUUUCAAAAUCUCCUGUGUUUUUUAAGCUUUUUCAAAAUAGAUGUCUGAGGAAAACCAGCAGAAUAUUAUGGAAUUCUCGGGUGCCAA`, “RBNS enrichment (R)” read 0.633.
For `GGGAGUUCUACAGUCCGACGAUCGACCUGAAGCAUCCUUGACCUUCAUUUUGCUCAGGACUAUUCACUGUUUCCCUUCCUUGAGGAAGCCAUUGGAGAGAGCCACAGAACAGCAGUAUAUUGUAUUAAAGUUUUGGAAUUCUCGGGUGCCAA`, “RBNS enrichment (R)” read 0.308.
Under “RBNS enrichment (R)”, `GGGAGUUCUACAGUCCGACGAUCAAUUUUUAGUUGCUCUUUGUUUUCUCUGCCGCACUUUCCUGGUGCCCCACGCUUUUCUCUCUUCCUUCCCCUCUCAUUCUCCCUCUAAUGUGUGGUGCUUUGGUGAGCAAUGGAAUUCUCGGGUGCCAA` is recorded as 0.393.
Under “RBNS enrichment (R)”, `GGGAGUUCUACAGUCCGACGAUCUUUUGGUAGUUGUUGUUACCCACGCCAUUUUACGUCUCCUUCACUGAAGGGCUAGAGUUUUAACUUUUAAUUUUUUAUAUUUAAAUGUAGACUUUUGACACUUUUAAAAAUGGAAUUCUCGGGUGCCAA` is recorded as 0.641.

Block 4 — method: competition protein-binding microarray; molecule type: double-stranded DNA, one strand shown; medium: in vitro; tested at: 2 µM; with: Pho4 competitor, 0.05 µM; direction: higher = stronger binding
Target: Centromere-binding protein 1, full length, His-tagged (CBF1, Saccharomyces cerevisiae, UniProt P17106, residues 1-351)
UniProt P17106, sequence (whole entry, looked up): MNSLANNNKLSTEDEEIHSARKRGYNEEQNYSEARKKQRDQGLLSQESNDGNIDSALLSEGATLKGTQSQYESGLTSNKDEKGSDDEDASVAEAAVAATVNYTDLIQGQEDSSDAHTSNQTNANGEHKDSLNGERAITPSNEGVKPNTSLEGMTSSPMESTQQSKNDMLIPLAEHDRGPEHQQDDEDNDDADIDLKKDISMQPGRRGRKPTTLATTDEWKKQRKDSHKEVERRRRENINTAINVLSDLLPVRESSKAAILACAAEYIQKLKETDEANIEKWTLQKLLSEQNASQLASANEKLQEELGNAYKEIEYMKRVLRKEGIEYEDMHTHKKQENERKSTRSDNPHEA
Notes: whole 60-bp probe, lowest competitor level
The fluorescence intensity of `TGGGGATGATGATAGTCCGTGACGGTTGCCAGGGAAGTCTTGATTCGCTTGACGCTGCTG` is reported as 68 a.u.
`CGCCAGCAGTGAAACCTCGTGGGACAAAGCCGGTTCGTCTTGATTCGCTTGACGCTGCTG` gave a fluorescence intensity of 73.7 a.u.
The fluorescence intensity of `AAATTACTAAGTTGATGTGTGGGTGACGCCGTATGAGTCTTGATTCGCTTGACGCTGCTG` is reported as 64.8 a.u.
The fluorescence intensity of `ACCTCAGGGTTTGTGTCTGTGATGGGTTACTCAGCCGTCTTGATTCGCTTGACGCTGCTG` is reported as 59.7 a.u.
`CGTCCTAGTGATTTTCACGTGGGATCCATGAGGAAGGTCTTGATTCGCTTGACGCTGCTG` gave a fluorescence intensity of 637 a.u.
With `ATCATGTTCAGAACAACCGTGATGGAGAAAATGGAGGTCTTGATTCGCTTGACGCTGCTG` the fluorescence intensity was 125 a.u.
`TACATCTTTGGCAGCCACGTTTCCCAATACATGGAAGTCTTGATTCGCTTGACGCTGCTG` has a fluorescence intensity of 99.9 a.u.
`CGCGAATGAGTTTGCCACGTCGTTTGCCCCGATGTTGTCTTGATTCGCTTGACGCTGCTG` gave a fluorescence intensity of 70.5 a.u.
The fluorescence intensity of `GATGTAATGTCCACACAGGTGATGGAATCATCCATTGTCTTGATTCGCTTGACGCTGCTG` is reported as 78.3 a.u.
For `TCGCATAGACGAACCCGCGTGCGATTGGTAAATTGCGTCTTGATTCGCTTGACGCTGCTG`, the fluorescence intensity was 84 a.u.
For `CTTTCCCGATCTTGTTCCGTGGGTGTAGCACATTTGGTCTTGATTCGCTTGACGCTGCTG`, the fluorescence intensity was 68.9 a.u.
For `TGACCATTGACTTTGAACGTGGTCGTCCAGTAAAGTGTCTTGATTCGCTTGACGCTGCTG`, the fluorescence intensity was 82.2 a.u.
`CTTCTGTAAATTTTTCACGTGGCCTGACGCGCCCCGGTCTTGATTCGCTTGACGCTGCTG` has a fluorescence intensity of 881 a.u.
With `CTAACGAAGGTTTGGGCTGTGGGTGACAAGCCAAGTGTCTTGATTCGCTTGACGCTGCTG` the fluorescence intensity was 74.4 a.u.
The fluorescence intensity of `GCATCAGATTCTTGTCATGCTTGTTCAATATACATCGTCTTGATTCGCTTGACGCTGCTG` is reported as 124 a.u.
`CTTGGGCAAGCGAGTCACGTACTTTTTTTTTTTTTTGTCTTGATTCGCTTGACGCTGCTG` gave a fluorescence intensity of 574 a.u.
The fluorescence intensity of `CATCTAACTTTTTTGCACGTGAATTGGATCTTGAGTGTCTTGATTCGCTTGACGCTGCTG` is reported as 1140 a.u.
The fluorescence intensity of `TGCAGAACGCAAAATCGCGTGCGGAAGGAACGAGGAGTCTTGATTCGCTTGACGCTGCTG` is reported as 78.8 a.u.
`ATTTGATATGCCTCTCTCGTGGCCGGCCCATTATATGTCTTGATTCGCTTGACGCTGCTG` gave a fluorescence intensity of 92.9 a.u.
The fluorescence intensity of `CAAAAGCTGGTGTCCCACGTCAAGCCATCAACTTGGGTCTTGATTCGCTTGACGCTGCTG` is reported as 56.2 a.u.
`GTCTTGTCTCATTGACGGGTGGGTGTCCCCACTTCAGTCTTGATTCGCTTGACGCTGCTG` gave a fluorescence intensity of 63.6 a.u.
For `AAATTACTAAGTTGTCACGTGACTTACCCCGTATGAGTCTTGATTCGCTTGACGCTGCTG`, the fluorescence intensity was 29700 a.u.
For `TGCGCAACAACTTGTCACCTGACTTTATGTCTAGAAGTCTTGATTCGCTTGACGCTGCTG`, the fluorescence intensity was 1810 a.u.
`CTTACCGTCCACTTTAACGTGACGGAGCATCAAGATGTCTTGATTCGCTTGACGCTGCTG` gave a fluorescence intensity of 132 a.u.
The fluorescence intensity of `GCAGCCGCAGCGAGTCACGTGGTCGCGCAAATGATGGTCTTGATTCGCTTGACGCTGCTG` is reported as 11400 a.u.
